Measured values gathered from unrelated publications.
Every numbered part comes from another study and shows a few of its results, in no order. Substitutions count along the parent as printed.

Block 1
Target: Ras GTPase-activating protein-binding protein 1, full length (G3BP1, Homo sapiens, UniProt Q13283)
Sequence of UniProt Q13283 (whole entry, looked up): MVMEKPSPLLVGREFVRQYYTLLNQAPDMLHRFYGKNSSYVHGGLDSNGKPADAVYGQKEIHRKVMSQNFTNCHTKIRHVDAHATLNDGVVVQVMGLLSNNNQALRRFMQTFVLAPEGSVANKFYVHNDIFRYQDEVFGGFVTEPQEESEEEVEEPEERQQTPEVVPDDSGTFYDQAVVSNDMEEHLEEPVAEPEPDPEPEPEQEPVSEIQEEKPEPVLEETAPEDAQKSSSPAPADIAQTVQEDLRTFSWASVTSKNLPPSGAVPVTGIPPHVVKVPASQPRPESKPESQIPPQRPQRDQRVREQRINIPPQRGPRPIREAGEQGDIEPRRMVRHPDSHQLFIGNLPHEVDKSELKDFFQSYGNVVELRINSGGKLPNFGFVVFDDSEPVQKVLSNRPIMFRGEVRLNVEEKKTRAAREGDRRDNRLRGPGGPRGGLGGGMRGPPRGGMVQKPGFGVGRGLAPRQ
Technique: RNA Bind-n-Seq
Molecule type: RNA
Sample: in vitro
Tested at: 200 nM
Notes: whole 134-nt RNA, ends assumed
Added: 150 mM LiCl
Relative to: input library
Direction: higher = stronger binding
Each molecule: 7-deaza-guanosine replaces G
Shared flanks, not repeated: GGGAGUUCUACAGUCCGACGAUC … UGGAAUUCUCGGGUGUCAAGG
Oligonucleotide	log2 enrichment
UGGCGCUGGUGGCAUGCGGGGAGGAAGAGGUGGCCUCAUGGAUCGUGGUGGUCCCGGUGGAAUGUUCAGAGGUGGCCGUGGUGGAGACAG	0.164
UGGGAGACGAUCGCGAUGAACACGGUGCUGUCGCGGGCGAACUCACUGUUCGCCUUCUCGCUGAGCGUGAUGGCGGCGCUCACCUUCGGC	-1.32
UGGCCCUGGUGGCAUGCGAGGAGGAAGAGGUGGCCUCAUGGAUCGUGGUGGUCCCGGUGGAAUGUUCAGAGGUGGCCGUGGUGGAGACAG	-0.00137
UGGGAGGUGGAUUUUGUUUAUUUUUUUAACUCAUUUCCAGGGGUGGGAAUUUUUUUUUAAUAUGUGUCAUGAAUAAAGUUGUUUUUGAAA	-0.429
ACCAUGCAGGUGGGCAUCUUUGGGAAGUGGGGCAAGGGGGGGAUAGGGAGGGGGGUAACACUGUGGGAACAGGUGGUCCCAGGUCGUUUC	0.155
CACAGACAACACGCACCCACACAGAAACAGAGGGAAGGGGUUGGGAUGGGGACAGGGUGCACAGCAGGGCGGGGUAGGACCCCAGCCCCU	0.522
UACCAUGGUGGAAGUUCCCGUUCUCGUAGCAGUAUUUUCCAUGCAGGAAAAAGCCAAGGACUACAUGAAAACAACAUACCUGACAAUGAA	0.172

Block 2
Target: RNA binding protein fox-1 homolog 2, RRM domain, GST-SBP tag (RBFOX2, Homo sapiens, UniProt O43251-10, residues 100-194)
Technique: RNA Bind-n-Seq
Molecule type: RNA
Sample: in vitro
Tested at: 365 nM
Notes: natural RNA segment, single round, ends assumed
Relative to: no-protein control
Direction: higher = stronger binding
Shared flanks, not repeated: GGGAGUUCUACAGUCCGACGAUC … UGGAAUUCUCGGGUGCCAA
Oligonucleotide	RBNS enrichment (R)
ACCAUUUUGGAAACUGUCAUGUAACUUAUUUUCUCCUUUAACCUCGUCAUCGUUUUCUGUAGGGGAAAAAAAAGAGAAAAAGAGAAAAAAAAAUGAGAUUUUACAAAUGA	0.441
CAAAAACCCAGUGCAGCUGAUGAUGCAAAGCAGUCUCUCUCUGUGUACAGUGCCCCACCUAUUUAAAAAUCACGUACUUGCCCAGAACACUGUGAAACACUUAACAUAAG	0.42
GUGUUUAAUGUUGCAGCAAACUCACCAAGAAGGAGACAAAUGGCUGUUUCGAAUGGAAGCUUUCUCAGCAGACAAUGUGUGCACAGUAAACUUCAGCAGAGUCCACUUGU	0.459
AUUCCCAGCAAGUCAGUGUCUCACAAGGGCACUGGCUAAUUACUCUUCUGUCCGCGUUGCUGAUGUCCUGUCCCCAGCCCCUGUCCAUCUCCCCCACACUCCCAUCACCU	0.557
CAGUCUGGUCUCAAACUCCCGGCCUCAAGCAAUCCUCCCACUGGCCUCACAAUGUUGGGAUUACAGGUAUAAGCCACUGCACACGGCCUUACUAUGCUAUCAAUUCCAUA	0.549

Block 3
Target: CCNF, cyclin fold, Cln2 fusion (human)
Technique: yeast growth competition, sequencing
Sample: yeast
Notes: strong parent motif
Relative to: not given
Direction: higher = stronger binding
Starting sequence: RB1 docking peptide (human); PKPLKKLRFDIEG
Variant	normalised enrichment score
P3W	2.68
I11M	0.826
K5M	1.12
L4Q	3.65
L7K	2.06
D10E	-0.0157

Mixed results
Substance	target	assay	test system	conditions	scale	quantity	value
PhoQ, residues 284 288 289 292 302 303 SACGEM	PhoP, residues 12 14 15 18 19 LWHVM (Escherichia coli, UniProt P23836)	Sort-seq, item: YFP reporter	E. coli	PhoQ-PhoP variant library, added: 10 µM Mg2+	relative to: high Mg2+ state, higher = stronger signaling	fold induction	20.6

Repeated from above (block 3):
Variant	normalised enrichment score
L4Q	3.65
K5M	1.12
